Assay results of several laboratories.
Protocols differ between the studies behind these lines. ± gives the spread as reported.
UniProt Q8NB78, sequence (whole entry, looked up): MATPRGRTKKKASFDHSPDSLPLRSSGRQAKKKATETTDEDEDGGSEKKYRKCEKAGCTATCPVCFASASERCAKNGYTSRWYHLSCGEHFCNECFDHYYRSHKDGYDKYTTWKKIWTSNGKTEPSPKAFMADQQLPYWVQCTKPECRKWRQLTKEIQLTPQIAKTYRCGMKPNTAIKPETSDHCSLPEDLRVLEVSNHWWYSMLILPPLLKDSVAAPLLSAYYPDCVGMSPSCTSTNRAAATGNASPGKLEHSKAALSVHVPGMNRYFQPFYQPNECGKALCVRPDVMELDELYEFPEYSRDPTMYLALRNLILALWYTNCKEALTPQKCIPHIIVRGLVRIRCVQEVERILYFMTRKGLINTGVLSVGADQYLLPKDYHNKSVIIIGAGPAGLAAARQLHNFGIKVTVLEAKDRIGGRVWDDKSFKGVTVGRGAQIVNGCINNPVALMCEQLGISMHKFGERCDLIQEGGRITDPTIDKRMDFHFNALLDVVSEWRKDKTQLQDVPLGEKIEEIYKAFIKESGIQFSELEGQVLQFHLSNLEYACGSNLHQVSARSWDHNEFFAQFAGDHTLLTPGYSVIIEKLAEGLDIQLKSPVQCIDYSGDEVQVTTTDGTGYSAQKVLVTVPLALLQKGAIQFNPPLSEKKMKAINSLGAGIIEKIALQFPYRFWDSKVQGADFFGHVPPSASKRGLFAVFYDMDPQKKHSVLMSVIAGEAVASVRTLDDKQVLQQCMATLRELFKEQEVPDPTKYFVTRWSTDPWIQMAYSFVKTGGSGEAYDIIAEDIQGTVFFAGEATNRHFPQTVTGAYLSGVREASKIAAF
UniProt P30559, sequence (whole entry, looked up): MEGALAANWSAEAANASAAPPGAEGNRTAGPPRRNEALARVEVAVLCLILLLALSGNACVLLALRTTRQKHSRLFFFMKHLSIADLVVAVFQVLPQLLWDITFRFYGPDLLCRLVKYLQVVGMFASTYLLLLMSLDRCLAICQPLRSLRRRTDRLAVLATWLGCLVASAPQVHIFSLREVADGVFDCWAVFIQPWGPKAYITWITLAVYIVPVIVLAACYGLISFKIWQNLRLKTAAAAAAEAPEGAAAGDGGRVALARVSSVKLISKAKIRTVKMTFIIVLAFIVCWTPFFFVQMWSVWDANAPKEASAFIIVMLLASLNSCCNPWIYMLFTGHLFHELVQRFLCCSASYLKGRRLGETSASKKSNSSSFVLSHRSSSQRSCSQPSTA
UniProt P02769, sequence (whole entry, unmodified, looked up): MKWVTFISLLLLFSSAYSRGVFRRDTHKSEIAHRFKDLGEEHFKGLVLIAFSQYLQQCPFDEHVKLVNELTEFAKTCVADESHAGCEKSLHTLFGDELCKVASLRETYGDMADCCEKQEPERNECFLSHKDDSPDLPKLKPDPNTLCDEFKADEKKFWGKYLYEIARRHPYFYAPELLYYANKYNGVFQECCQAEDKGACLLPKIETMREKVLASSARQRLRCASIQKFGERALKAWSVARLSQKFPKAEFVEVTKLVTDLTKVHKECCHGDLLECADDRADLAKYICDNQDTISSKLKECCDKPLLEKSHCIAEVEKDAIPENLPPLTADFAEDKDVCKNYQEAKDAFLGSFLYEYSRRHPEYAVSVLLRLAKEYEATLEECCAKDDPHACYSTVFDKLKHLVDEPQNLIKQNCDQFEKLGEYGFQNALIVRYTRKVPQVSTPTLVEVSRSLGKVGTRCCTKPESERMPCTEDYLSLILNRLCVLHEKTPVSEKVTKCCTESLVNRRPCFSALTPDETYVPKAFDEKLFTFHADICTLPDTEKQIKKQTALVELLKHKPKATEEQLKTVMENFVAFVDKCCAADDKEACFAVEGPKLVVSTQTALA
UniProt Q15691, sequence (whole entry, looked up): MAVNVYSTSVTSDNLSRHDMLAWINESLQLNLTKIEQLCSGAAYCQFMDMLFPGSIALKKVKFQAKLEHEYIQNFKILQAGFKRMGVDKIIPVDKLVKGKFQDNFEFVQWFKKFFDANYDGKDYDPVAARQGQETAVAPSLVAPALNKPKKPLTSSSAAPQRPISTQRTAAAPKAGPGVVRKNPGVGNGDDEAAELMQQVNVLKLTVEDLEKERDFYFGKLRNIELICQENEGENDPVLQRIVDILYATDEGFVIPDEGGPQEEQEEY
UniProt P78417, sequence (whole entry, looked up): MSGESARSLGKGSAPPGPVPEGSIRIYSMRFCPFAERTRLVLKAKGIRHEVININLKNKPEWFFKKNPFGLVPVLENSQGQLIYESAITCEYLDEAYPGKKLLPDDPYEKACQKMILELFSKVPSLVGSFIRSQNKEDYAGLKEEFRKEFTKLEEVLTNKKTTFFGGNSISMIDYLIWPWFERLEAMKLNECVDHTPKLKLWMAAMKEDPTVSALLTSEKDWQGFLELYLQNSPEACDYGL
UniProt P01024, sequence (whole entry, unmodified, looked up): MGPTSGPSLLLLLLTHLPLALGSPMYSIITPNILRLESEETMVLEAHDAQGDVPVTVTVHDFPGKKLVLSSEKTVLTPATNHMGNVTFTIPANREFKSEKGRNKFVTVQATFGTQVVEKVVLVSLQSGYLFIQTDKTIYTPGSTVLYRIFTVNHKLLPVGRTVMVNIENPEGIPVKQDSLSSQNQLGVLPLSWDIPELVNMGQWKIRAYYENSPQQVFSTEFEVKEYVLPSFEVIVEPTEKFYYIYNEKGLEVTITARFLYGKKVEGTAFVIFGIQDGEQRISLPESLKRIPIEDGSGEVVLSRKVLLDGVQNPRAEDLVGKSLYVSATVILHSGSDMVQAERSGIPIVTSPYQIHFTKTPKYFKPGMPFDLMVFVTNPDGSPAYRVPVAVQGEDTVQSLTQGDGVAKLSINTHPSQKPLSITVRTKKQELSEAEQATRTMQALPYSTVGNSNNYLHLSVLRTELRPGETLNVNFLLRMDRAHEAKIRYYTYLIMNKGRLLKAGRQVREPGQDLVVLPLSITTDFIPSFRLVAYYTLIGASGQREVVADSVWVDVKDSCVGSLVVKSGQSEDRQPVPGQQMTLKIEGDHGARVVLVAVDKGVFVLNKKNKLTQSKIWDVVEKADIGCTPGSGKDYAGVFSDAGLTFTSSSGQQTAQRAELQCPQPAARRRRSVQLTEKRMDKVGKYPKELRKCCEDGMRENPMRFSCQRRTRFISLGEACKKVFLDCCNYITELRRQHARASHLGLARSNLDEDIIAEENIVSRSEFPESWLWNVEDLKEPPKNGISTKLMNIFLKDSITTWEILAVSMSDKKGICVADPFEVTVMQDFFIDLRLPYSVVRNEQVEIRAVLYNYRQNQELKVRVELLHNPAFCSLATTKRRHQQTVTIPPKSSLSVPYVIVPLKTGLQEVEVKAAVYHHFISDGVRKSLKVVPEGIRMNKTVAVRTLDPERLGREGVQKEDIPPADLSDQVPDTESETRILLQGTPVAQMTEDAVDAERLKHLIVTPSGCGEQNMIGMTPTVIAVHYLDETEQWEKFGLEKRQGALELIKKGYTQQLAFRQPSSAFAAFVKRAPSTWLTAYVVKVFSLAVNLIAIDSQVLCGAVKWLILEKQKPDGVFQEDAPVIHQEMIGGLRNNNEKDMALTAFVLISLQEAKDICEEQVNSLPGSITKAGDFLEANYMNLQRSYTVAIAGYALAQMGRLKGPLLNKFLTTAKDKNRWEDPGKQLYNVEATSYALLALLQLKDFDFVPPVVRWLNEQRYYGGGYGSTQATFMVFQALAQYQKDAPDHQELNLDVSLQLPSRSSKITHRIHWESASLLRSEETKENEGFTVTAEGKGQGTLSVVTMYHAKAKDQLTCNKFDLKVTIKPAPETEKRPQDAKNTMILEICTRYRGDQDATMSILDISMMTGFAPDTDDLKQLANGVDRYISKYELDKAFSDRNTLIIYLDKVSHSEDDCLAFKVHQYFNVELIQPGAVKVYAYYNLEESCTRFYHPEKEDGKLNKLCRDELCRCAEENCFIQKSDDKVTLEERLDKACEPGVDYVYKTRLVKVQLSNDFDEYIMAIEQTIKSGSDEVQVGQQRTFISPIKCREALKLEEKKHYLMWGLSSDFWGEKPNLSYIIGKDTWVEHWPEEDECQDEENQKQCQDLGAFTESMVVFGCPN
UniProt Q04609, sequence (whole entry, looked up): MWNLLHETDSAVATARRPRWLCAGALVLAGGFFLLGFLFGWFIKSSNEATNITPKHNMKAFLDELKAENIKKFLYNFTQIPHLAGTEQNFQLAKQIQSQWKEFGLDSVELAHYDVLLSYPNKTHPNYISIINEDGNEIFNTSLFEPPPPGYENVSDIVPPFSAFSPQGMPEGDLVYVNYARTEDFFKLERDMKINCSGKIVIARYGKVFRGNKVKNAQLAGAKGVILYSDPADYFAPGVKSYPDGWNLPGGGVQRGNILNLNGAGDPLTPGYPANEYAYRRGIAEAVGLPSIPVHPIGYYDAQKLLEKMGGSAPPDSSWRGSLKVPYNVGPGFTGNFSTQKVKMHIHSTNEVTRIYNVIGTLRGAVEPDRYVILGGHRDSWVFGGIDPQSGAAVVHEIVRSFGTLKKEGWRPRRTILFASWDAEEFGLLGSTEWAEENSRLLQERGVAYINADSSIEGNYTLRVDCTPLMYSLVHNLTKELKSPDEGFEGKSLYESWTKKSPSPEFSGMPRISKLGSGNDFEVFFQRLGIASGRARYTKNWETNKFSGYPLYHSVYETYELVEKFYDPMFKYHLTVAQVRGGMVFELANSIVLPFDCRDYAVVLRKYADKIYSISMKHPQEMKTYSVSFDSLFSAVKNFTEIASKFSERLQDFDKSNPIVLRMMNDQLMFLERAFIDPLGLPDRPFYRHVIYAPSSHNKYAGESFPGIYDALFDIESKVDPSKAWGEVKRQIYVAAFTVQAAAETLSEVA

For O=C(COCCc1ccccc1)N[C@@H](Cc1cn(CCNC(=O)c2ccc(S[C@@H]3O[C@H](CO)[C@H](O)[C@H](O)[C@H]3O)cc2)nn1)C(=O)NCCO, the −TΔS was 2.87 ± 0.0956 kcal/mol (lecA (Pseudomonas aeruginosa, UniProt Q05097); binding, isothermal titration calorimetry; 25 °C).
Under “time to full inhibition”, COc1cc(-c2ncn(/C=C\C(=O)OC(C)C)n2)cc(C(F)(F)F)c1 is recorded as 5 min (Exportin-1 (CRM1, Saccharomyces cerevisiae, UniProt P30822, del377-413/T539C); binding to PKI NES, inhibitor, pull-down; 10 µM).
For COc1cc(CNC(=O)C[C@H](C)CCC=C(C)C)ccc1OCc1cn(-c2ccccc2Cl)nn1, the growth was 56.4% (LOX IMVI; SRB; 10 µM, 48 h).
O=C(NC1CCCCC1)C(c1cccnc1)N(C(=O)CCl)c1ccc(F)cc1 (racemic) — result for “labelling at non-active-site cysteines”: 0 to 0.6% (GSTO1 (Homo sapiens, UniProt P78417); covalent inhibitor, LC-MS/MS; 10 µM, enzyme 50 µM; relative to: total labelling).
O=C([O-])CN(CCN(CC(=O)[O-])Cc1cc(CCC(=O)NCCCCCC(=O)NCCCC[C@H](NC(=O)N[C@@H](CCC(=O)O)C(=O)O)C(=O)O)ccc1O)Cc1cc(CCC(=O)O)ccc1[O-].[68Ga+3] has an SUVmax of 16.1 ± 13.2 (FOLH1 (Homo sapiens, UniProt Q04609); PET/CT; prostate cancer patients, bone metastases; 60 min post-injection).
The binding enthalpy of NC[C@@H]1O[C@H](O[C@H]2[C@@H](O)[C@H](O[C@@H]3[C@@H](O)[C@H](N)C[C@H](N)[C@H]3O[C@H]3O[C@H](CN)[C@@H](O)[C@H](O)[C@H]3N)O[C@@H]2CO)[C@H](N)[C@@H](O)[C@@H]1O is reported as -8.2 ± 0.04 kcal/mol (poly(dA)·2poly(dT) triplex; ITC; concentration not given, pH 6.8, 5 °C, KCl 150 mM).
For COc1ccc(CCCN[C@H]2CCC[C@@H]2CN[C@H]2CCC[C@@H]2CNCCCCN[C@@H]2CCC[C@H]2CN)cc1, the selectivity ratio was 1.8 (KDM1B (Homo sapiens, UniProt Q8NB78); peroxidase-coupled; relative to: Ki for KDM1B over Ki for LSD1).
Cc1ccc2ccc3ccc(C)nc3c2n1.Cc1ccc2ccc3ccc(C)nc3c2n1.O.[Cl-].[Cl-].[Cl-].[Yb+3] gave a ΔG° of -8.119 ± 0.0143 kcal/mol (Albumin (ALB, Bos taurus, UniProt P02769); fluorescence quenching; 290 K).
N=C(N)NCCC[C@@H]1NC(=O)[C@H](CCCCNC(=O)CC[C@H](NC(=O)CC[C@H](NC(=O)CN2CCN(CC(=O)O)CCN(CC(=O)O)CCN(CC(=O)O)CC2)C(=O)N[C@@H](CCC(=O)NCCCC[C@@H]2NC(=O)[C@@H](Cc3ccccc3)NC(=O)[C@H](CC(=O)O)NC(=O)CNC(=O)[C@H](CCCNC(=N)N)NC2=O)C(=O)NCCCC[C@@H]2NC(=O)[C@@H](Cc3ccccc3)NC(=O)[C@H](CC(=O)O)NC(=O)CNC(=O)[C@H](CCCNC(=N)N)NC2=O)C(=O)NCCCC[C@@H]2NC(=O)[C@@H](Cc3ccccc3)NC(=O)[C@H](CC(=O)O)NC(=O)CNC(=O)[C@H](CCCNC(=N)N)NC2=O)NC(=O)[C@@H](Cc2ccccc2)NC(=O)[C@H](CC(=O)O)NC(=O)CNC1=O [indium-111 labelled] gave a tissue uptake of 1.15 ± 0.84 %ID/g (female athymic nu/nu mice, spleen; intravenous, 111 kBq, 24 h).
CC[C@H](C)[C@H](NC(C)=O)C(=O)N[C@H]1CSSC[C@@H](C(=O)N[C@H](C(N)=O)[C@@H](C)O)NC(=O)[C@H](CCCNC(=N)N)NC(=O)[C@H](Cc2c[nH]cn2)NC(=O)[C@@H]2CCCN2C(=O)CNC(=O)[C@H](Cc2c[nH]c3ccccc23)NC(=O)[C@H](CC(=O)O)NC(=O)[C@H](CCC(N)=O)NC(=O)[C@H](Cc2cn(C)c3ccccc23)NC(=O)[C@H](C(C)C)NC1=O has a ΔG of -10.1 kcal/mol (Complement C3 (Homo sapiens, UniProt P01024); ITC; 25 °C; more negative = stronger binding).
The growth percent of COc1cc(CNC(=O)C[C@H](C)CCC=C(C)C)ccc1OCc1cn(-c2ccc(C#N)cc2)nn1 is reported as 81% (EKVX; SRB; 10 µM, 48 h).
NC(=O)C[C@@H]1NC(=O)[C@H](Cc2ccc(O)cc2)NC(=O)CNC(=O)CNC(=O)[C@H](CCC(=O)O)NC(=O)[C@H](CCC(=O)O)NC(=O)[C@H](Cc2ccccc2)NC(=O)[C@@H]2CCCN2C1=O — result for “affinity improvement over linear peptide”: 4 fold (EH domain-containing protein 1, EH domain (Homo sapiens, UniProt Q9H4M9); binding, isothermal titration calorimetry; all salt conditions).
With CC[C@H](C)[C@@H]1NC(=O)[C@H](Cc2ccc(O)cc2)NC(=O)[C@@H](N)Cc2cn(nn2)CCCC[C@@H](C(=O)N2CCC[C@H]2C(=O)N[C@@H](CC(C)C)C(=O)NCC(N)=O)NC(=O)[C@H](CC(N)=O)NC(=O)[C@H](CCC(N)=O)NC1=O the Emax was 19.8% (Oxytocin receptor (OXTR, Homo sapiens, UniProt P30559); inositol phosphate, agonist; HEK293).
For C=C1CCN2C(=O)COc3cccc(c3)C(CCc3ccc(OC)c(OC)c3)OC(=O)C3CCCCN3C(=O)C(=O)C(C)(C)COC(=O)C(CC)NC(=O)C2C1 (centres unmarked), the Emax was 93% (FKBP1A/MAPRE1 (Homo sapiens, UniProt P62942+Q15691); FKBP12-MAPRE1 proximity, TR-FRET; relative to: DMSO).

Repeated from above:
With CC[C@H](C)[C@@H]1NC(=O)[C@H](Cc2ccc(O)cc2)NC(=O)[C@@H](N)Cc2cn(nn2)CCCC[C@@H](C(=O)N2CCC[C@H]2C(=O)N[C@@H](CC(C)C)C(=O)NCC(N)=O)NC(=O)[C@H](CC(N)=O)NC(=O)[C@H](CCC(N)=O)NC1=O the Emax was 19.8% (Oxytocin receptor (OXTR, Homo sapiens, UniProt P30559); inositol phosphate, agonist; HEK293).
For C=C1CCN2C(=O)COc3cccc(c3)C(CCc3ccc(OC)c(OC)c3)OC(=O)C3CCCCN3C(=O)C(=O)C(C)(C)COC(=O)C(CC)NC(=O)C2C1 (centres unmarked), the Emax was 93% (FKBP1A/MAPRE1 (Homo sapiens, UniProt P62942+Q15691); FKBP12-MAPRE1 proximity, TR-FRET; relative to: DMSO).
